# Results gathered from unrelated publications.
# Numbered parts are unrelated; each lists some results of a single study.

# Study 1
# Target: Interferon regulatory factor 7, full length, phosphomimetic (IRF7, Homo sapiens, UniProt Q92985, residues 1-503, S101K/S471D/S472D/S475D/S476D/S477D/S483D/S484D/S487D)
# Method: protein-binding microarray
# Form: double-stranded DNA, one strand shown
# Matrix: in vitro
# Tested at: 250 nM
# Notes: 60-bp whole probe
# With: salmon DNA 0.4 mg/ml
# Reference: random background probes
# Direction: higher = stronger binding
# All sequences stand within: GCCTAGCAC … GTCTTGATTCGCTTGACGCTGCTG
# Target sequence (chain): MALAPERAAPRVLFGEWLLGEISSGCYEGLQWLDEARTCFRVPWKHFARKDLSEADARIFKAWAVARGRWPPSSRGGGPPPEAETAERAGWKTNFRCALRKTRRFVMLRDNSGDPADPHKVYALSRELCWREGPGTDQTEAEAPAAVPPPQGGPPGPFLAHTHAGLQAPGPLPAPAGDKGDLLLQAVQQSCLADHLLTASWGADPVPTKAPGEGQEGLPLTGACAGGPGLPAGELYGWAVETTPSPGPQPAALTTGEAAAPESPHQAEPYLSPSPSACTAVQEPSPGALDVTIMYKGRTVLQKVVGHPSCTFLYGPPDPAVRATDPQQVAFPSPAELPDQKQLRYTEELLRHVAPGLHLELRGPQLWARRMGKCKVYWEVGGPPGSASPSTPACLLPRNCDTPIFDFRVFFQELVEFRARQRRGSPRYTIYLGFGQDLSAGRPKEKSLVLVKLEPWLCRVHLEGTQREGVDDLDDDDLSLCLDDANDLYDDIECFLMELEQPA
Sequence,log fluorescence [z-score]
TTTTTTCTACTTCTGTTTTTGTGCTAG,4.26
TTAGGTATCGACTCTCGGTTAGTGCTA,1.52
GAGGGTCTCGGTCTCGGGACGTGCTAG,0.434
CTTGCTTCCCAATTCTCTTTGTGCTAG,1.36
TTAGGTTCCGGTTTCTGTTAGTGCTAG,9.18
GTAGGTTTCCTTCTCCTTTAGTGCTAG,1.99
GCTCCTCTTTTTTTGGTAATGTGCTAG,1.21
GACGGTTCCCTTTTCCTGAAGTGCTAG,2.99
GACGGACTGGACTTTCGAGACGTGCTA,-0.361
GACGATATCTGTTTCGAGACGTGCTAG,1.58
TCACATTTTTTTTGCAAACTGTGCTAG,0.987
GACGGACTGCTTCTCCCGACGTGCTAG,-0.1
TCATCATTTTTTTTCATACTGTGCTAG,0.93
TTAGGTCTCCTTAGCCTTTAGTGCTAG,-0.259
GACGATATCCTTATCCTGACGTGCTAG,-0.177
GACGATTTCGGGTATTGAGACGTGCTA,0.549
AATTTTTTGTATTTTTAGTGGTGCTAG,0.162
TTAGATTTCGGGTATCTATTAGTGCTA,1.34
TTAGGTCTCGGATTCGGTTAGTGCTAG,5.21
CTTGGCTTCTCCCACAGGTGGTGCTAG,-0.751
TTAGGACTGGACAATCGGTTAGTGCTA,-0.467
TTAGGTTTCGATTATCGGTTAGTGCTA,10.4
GACCGTTTCGACTATCGGGACGTGCTA,3.7
GCCGGTATCCTTCTCCTGACGTGCTAG,0.238
TCATTTTCATTTTTTTTACTGTGCTAG,2.34

# Study 2
# Target: POU domain, class 5, transcription factor 1, POU domain (Pou5f1, Mus musculus, UniProt P20263, residues 131-289)
# Chain of UniProt P20263 (131-289, looked up): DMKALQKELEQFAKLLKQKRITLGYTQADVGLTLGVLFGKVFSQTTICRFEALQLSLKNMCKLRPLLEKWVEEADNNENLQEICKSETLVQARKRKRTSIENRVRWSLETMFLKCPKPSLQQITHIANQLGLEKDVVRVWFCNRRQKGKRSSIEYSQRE
# Method: Spec-seq
# Form: double-stranded DNA, one strand shown
# Matrix: in vitro
# Tested at: not given
# Notes: whole probe, mean of replicates
# Reference: not given
# Direction: lower = stronger binding
# All sequences stand within: GAGTCGTCTCGTCAGCAC … CCGTAGAGCACTCAGGTC
Sequence,relative binding energy
CACTTAAT,0.535 ln ratio
ATGTTGAT,-0.527 ln ratio
ATGCTTCT,0.486 ln ratio
ATGCTGGA,0.576 ln ratio
ATGGTGAT,-0.291 ln ratio
ATGCTGCG,0.747 ln ratio
ATGCTTTA,0.578 ln ratio
ATACGTAT,0.297 ln ratio
CGACTAAT,0.378 ln ratio
ATGACGAT,0.759 ln ratio
TGGGTAAT,0.846 ln ratio
ATGCTACG,0.52 ln ratio
ATGCACCC,0.161 ln ratio
ATTGAAAT,-0.263 ln ratio
TATGTAAT,-0.648 ln ratio
ATAGTCAT,0.43 ln ratio
GCTTTAAT,0.541 ln ratio
CATATAAT,0.628 ln ratio
ACCGTAAT,0.737 ln ratio
ATGGGTAT,0.497 ln ratio
ATCGGCAT,0.402 ln ratio
ATCACAAT,0.289 ln ratio
ATGCTCAG,0.73 ln ratio
ATGCTTCA,0.621 ln ratio
ATAATCAT,-1.06 ln ratio

# Study 3
# Target: RING finger protein unkempt homolog, zinc fingers 1-6, GST-SBP tag (UNK, Homo sapiens, UniProt Q9C0B0, residues 30-357)
# Method: RNA Bind-n-Seq
# Form: RNA
# Matrix: in vitro
# Tested at: not given
# Notes: RNA with constant flanks, human and mouse sites, ends assumed
# Reference: input RNA pool
# Direction: higher = stronger binding
# Target sequence (chain): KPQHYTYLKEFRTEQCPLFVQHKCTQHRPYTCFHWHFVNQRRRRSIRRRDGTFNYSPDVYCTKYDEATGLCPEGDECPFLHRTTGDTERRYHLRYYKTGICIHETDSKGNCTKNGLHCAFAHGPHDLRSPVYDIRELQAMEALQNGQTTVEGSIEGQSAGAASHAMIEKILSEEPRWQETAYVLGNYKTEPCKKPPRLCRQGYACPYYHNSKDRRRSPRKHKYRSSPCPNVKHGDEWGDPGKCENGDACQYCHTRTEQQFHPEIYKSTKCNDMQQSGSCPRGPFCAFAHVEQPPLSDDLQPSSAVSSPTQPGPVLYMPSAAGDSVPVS
Sequence,bound/input enrichment [ratio]
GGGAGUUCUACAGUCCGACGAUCCCAAAGAAGAUACAGUAUGAAAGUAGAGGUGCACUCUCUAUAAUACAAUCUACUGUACAGUUAGCAAGCGAAGUGUUAAAUGGAGAAGAUGCUUGUUUUUAUUAAACAUUUGGAGAUUUACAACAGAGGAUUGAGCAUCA,0.614
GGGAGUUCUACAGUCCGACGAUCCAUGUGCAGGGUGAGGUUUUUUUUUGCCACCCUGGACACAUGUUGGCCCCCUCAAAGAAUUUCUGUGGGGAUUUGUACCCCAGAAUCCUGUUCCCCCAUCCCUUCUCCCACCUCCUCCCCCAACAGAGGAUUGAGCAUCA,0.741
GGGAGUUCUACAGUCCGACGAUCAGGUAUCAUUGCCCAAUGCCCAAGAUCUUUUAUGUUCAGUUAACUGUAGGAAAUAAUGAAUUCUUUGGUGAAGGGAAGACUCGACAAGCUGCCAGACACAAUGCUGCGAUGAAAGCGCUUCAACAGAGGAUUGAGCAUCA,0.312
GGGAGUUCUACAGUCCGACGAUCCCUCCACCUAAUGCAGAUCCCAAUAUGAAGUUAUUUACAAUUCGGGGCACUCCACAGCAAAUAGACUAUGCUCGACAACUCAUAGAAGAGAAGAUUGGGGGCCCAGUAAAUCCUUUAGGGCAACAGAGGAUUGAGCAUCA,1.49
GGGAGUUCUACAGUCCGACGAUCGGAGGGUAUGGAGGCUAUGAUGACUAUGGUGGCUAUAAUGAUGGAUAUGGCUUUGGGUCUGAUAGAUUUGGAAGAGACCUCAAUUACUGUUUUUCAGGAAUGUCUGAUCAUAGAUACGGACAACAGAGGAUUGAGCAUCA,0.74
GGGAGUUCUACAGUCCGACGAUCCGGACCACAGAGUUCAAACCUUCUGCCCAAAGAAAUGAGCCGUACAAGUUGCUCACACACAAAAUCCCAUGGCACAGUCACUUUGGUGGUUUCCUGGCAACCAUCCGUACAGUUUUGGGACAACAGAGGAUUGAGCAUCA,0.0998
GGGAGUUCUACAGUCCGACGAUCCAGAGUUGGACAGACUUCUCAAGGCUCCAUCUUUCCAAUAAAUUGGCCAUUUUUGGAAUUGGCUAUAACACCCGCUGGAAAGAGGAUAUUCGUUACCAUUAUGCUGAGAUCAGCUCACAGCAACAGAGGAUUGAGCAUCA,0.143
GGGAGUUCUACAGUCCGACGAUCGGAAGUAAUCCUACAUCAGCCUCUGAUGAUUCCAAUGGGCUGGAGUGGGAAAAUGAUUUUGUUAGUGCCGAAAUGGAUGAUAAUGGAAAUUCCGAGUAUUCUGGAUUUGUAAAUCCUGUACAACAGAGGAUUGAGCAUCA,0.195
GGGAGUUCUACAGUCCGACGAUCGGAAAUCAGUCUGUAACACUGGCAAGUCUUAAGAUAGUCCCAUUUAGACUUUGCAGAUGCUGAACCUGGCUCUGUAACGCUGGGAAGUCUUAAGAUAGUCCUGUUUAGACUUUGCAAACCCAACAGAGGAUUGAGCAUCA,0.124
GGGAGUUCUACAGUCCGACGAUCAAGUCCACAUUUAGUUUUAGUAUGACAAAACCAUCUGAGAAGGAAUCUGAACAGCCAGCAAAAGCCACUUUUGCCUUUGGAGCUCAAACUAGUACUACAGCUGAUCAAGGUGCAGCAAAGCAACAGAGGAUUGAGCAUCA,1.16
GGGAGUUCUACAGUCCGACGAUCGAUUUCUUCUCCAUUGGGAAUGAAGGUGUCAGGCGGGACUGGAACGUUCUAGAUGGUAUGUUCCGUGAUAUUAACAACUCUAACCCAGGACAGACCACAAGCCACACUCAGAGGCCUCACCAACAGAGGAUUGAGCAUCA,0.0827

# Study 4
# Target: Histone acetyltransferase KAT6A, winged helix 1, GST fusion (KAT6A, Homo sapiens, UniProt Q92794, residues 1-85)
# Method: protein binding microarray
# Form: double-stranded DNA, one strand shown
# Matrix: in vitro
# Tested at: not given
# Notes: 8-mer, flanks averaged, mean of 2 arrays, mostly near background
# Reference: not given
# Direction: higher = stronger binding
# Target sequence (chain): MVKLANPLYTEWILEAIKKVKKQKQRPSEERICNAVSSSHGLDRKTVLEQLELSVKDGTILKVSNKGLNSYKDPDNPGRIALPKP
Sequence,E-score
CCCTCCCA,-0.0428
CGCGTTGA,0.274
CCCGAGAG,0.0725
GTGTGAAA,-0.158
GAATCACA,-0.0356
TCACGAAA,-0.0449
AAGTTGCA,-0.186
CTGGAAAA,0.00123
AATCAGAC,-0.0795
AACGATCA,-0.221
ACCCAATG,-0.111
ATAGGCTA,-0.15
CGGATCTA,0.0572
TATACATA,-0.196
AGCTGGAC,-0.273
ACATACAG,-0.163
CATAATAA,-0.124
AAGGAGTG,-0.0341
CGGGCCAA,0.0579
AAAAAGTT,-0.224

# Some of these lines once more (study 2):
Sequence,relative binding energy
ATGCTTCT,0.486 ln ratio
ATGCTGGA,0.576 ln ratio
ATGGTGAT,-0.291 ln ratio
ATGCTGCG,0.747 ln ratio
ATGCTTTA,0.578 ln ratio
ATACGTAT,0.297 ln ratio
CGACTAAT,0.378 ln ratio
ATGACGAT,0.759 ln ratio
TGGGTAAT,0.846 ln ratio
ATGCTACG,0.52 ln ratio
ATGCACCC,0.161 ln ratio
